Results collected from several papers.
A part holds a random share of what one study measured.

Set 1
Target: Transcription factor Sp1 (SP1, Homo sapiens, UniProt P08047, residues 1-785, full length assumed)
Sequence of UniProt P08047 (whole entry, looked up): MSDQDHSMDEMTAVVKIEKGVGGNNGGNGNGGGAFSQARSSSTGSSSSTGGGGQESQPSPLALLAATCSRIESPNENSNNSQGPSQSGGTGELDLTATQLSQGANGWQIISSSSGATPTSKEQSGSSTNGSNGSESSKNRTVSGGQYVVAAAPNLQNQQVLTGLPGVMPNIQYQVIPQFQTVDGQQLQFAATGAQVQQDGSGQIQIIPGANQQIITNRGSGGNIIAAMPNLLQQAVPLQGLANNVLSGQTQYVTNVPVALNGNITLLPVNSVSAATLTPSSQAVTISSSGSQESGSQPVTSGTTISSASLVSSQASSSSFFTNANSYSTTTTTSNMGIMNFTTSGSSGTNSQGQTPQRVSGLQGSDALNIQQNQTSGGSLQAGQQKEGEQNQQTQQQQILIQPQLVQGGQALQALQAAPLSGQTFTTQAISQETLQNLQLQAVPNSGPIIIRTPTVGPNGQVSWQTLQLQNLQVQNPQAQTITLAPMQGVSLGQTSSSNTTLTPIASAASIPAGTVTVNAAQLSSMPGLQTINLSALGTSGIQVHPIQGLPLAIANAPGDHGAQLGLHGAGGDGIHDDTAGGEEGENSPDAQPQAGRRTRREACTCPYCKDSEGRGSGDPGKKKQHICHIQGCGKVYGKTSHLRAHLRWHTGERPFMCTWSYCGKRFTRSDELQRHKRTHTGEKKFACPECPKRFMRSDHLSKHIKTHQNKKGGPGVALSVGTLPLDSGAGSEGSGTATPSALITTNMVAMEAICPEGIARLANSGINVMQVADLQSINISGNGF
Technique: protein-binding microarray
Molecule type: double-stranded DNA, one strand shown
Medium: in vitro
Concentration: not given
Notes: k-mer, scored over probes, only values ≥0.25
Reading: higher = stronger binding
Strand	E-score
CCCGCCCG	0.393
CCTTGTCA	0.265
CTATACCC	0.282

Set 2
Target: Interferon regulatory factor 5, full length, phosphomimetic (IRF5, Homo sapiens, UniProt Q13568-2, residues 1-514, K96S/S451D/S453D/S456D/S462D)
Technique: protein-binding microarray
Molecule type: double-stranded DNA, one strand shown
Medium: in vitro
Concentration: 250 nM
Notes: 60-bp whole probe
Added: salmon DNA 0.4 mg/ml
Reference: random background probes
Reading: higher = stronger binding
Strand	log fluorescence
GCCTAGCACGACGAACCGAGTCTCGAGACGTGCTAGGTCTTGATTCGCTTGACGCTGCTG	-0.149 z-score
GCCTAGCACTTAGAAGTGGGGTATCGATTAGTGCTAGTCTTGATTCGCTTGACGCTGCTG	2.49 z-score
GCCTAGCACGGCCATTTCCCTTGCCGCGCGTGCTAGGTCTTGATTCGCTTGACGCTGCTG	-0.0937 z-score

Single results of other studies
SALL4 full length isoform A: Sal-like protein 4, full length isoform A (SALL4, Homo sapiens, UniProt Q9UJQ4, residues 1-1053)
Sequence of UniProt Q9UJQ4 (whole entry, looked up): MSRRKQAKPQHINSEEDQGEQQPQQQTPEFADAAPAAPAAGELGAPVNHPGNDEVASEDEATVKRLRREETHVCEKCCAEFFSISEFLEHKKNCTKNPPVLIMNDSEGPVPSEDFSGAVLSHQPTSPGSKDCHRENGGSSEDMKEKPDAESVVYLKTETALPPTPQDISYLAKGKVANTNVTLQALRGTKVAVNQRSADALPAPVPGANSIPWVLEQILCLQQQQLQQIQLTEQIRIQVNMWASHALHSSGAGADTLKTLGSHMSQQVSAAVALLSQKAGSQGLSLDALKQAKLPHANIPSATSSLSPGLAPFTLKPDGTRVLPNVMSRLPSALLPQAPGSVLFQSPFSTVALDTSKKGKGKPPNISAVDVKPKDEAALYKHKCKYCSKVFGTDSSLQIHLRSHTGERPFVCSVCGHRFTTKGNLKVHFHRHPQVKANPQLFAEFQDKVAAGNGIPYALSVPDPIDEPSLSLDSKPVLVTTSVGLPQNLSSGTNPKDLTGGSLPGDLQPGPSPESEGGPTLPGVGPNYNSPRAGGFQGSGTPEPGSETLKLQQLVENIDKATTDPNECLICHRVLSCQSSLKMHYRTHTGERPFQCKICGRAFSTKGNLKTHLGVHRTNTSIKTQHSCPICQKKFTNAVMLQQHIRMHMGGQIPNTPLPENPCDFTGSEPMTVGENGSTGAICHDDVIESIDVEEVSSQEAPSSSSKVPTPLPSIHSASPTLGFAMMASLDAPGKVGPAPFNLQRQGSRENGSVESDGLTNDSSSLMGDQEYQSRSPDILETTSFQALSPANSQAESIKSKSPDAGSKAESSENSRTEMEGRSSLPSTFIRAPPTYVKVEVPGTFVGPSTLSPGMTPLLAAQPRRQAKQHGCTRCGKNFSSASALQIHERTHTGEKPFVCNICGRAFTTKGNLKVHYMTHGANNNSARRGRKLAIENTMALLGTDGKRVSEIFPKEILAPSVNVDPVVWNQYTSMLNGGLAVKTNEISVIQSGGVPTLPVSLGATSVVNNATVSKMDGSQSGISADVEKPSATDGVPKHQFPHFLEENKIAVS
Substance	target	assay	system	conditions	scale	measurement	value
GAACGCCA	SALL4 full length isoform A	universal PBM	double-stranded DNA, one strand shown, in vitro	600 nM, 8-mer, flanks averaged, mean of replicates	higher = stronger binding	E-score	-0.239
PhoQ, residues 284 288 289 292 302 303 TTSMTC	PhoP, residues 12 14 15 18 19 FWNTL (Escherichia coli, UniProt P23836)	Sort-seq, measured: YFP reporter	E. coli	PhoQ-PhoP variant library, added: 10 µM Mg2+	reference: high Mg2+ state, higher = stronger signaling	fold induction	1.58
CTAGCATC	SALL4 full length isoform A	universal PBM	double-stranded DNA, one strand shown, in vitro	600 nM, 8-mer, flanks averaged, mean of replicates	higher = stronger binding	E-score	-0.0423

A few entries again (set 1):
Strand	E-score
CCCGCCCG	0.393
